Measurements from different studies.
Each numbered part is a random draw from the data of one study; scales do not carry over between parts. Substitutions count along the parent as printed.

Study 1
Target: CCND1, cyclin fold, Cln2 fusion (human)
Technique: yeast growth competition, sequencing
Sample: yeast
Notes: weak parent motif
Relative to: not given
Reading: higher = stronger binding
Endpoint: normalised enrichment score
Parent: viral docking peptide; PTARRRLLHDLDT; partner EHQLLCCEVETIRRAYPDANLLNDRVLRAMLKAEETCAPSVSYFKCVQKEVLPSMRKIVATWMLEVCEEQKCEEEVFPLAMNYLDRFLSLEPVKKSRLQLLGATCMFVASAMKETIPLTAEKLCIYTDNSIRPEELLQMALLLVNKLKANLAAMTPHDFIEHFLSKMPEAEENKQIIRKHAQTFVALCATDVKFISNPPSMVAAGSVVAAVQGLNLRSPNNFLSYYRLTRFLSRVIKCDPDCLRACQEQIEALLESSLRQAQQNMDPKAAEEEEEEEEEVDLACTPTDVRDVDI
PTARRRLLHDLAT [D12A]: -0.685
PTARKRLLFDLDT [R5K H9F]: 0.883
PTARRRLLADLDT [H9A]: 0.228
PTARRRLAHDLDT [L8A]: -0.631
PTARRRLLFDLDT [H9F]: 3.25
PAARRRLLHDLDT [T2A]: -0.437
PTARRRLLHDLDA [T13A]: -0.286
PTARRALLHDLDT [R6A]: 0.51

Study 2
Target: RING finger protein unkempt homolog, zinc fingers 1-6, GST-SBP tag (UNK, Homo sapiens, UniProt Q9C0B0, residues 30-357)
Sequence of UniProt Q9C0B0 (30-357, looked up): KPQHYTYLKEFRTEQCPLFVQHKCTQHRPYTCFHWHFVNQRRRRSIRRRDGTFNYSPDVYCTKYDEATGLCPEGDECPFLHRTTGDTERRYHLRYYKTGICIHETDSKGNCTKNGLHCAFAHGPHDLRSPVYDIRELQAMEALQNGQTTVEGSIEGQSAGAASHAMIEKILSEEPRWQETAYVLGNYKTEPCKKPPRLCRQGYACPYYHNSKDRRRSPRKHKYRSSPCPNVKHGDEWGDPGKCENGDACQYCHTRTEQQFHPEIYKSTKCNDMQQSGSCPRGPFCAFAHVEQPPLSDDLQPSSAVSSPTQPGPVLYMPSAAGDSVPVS
Technique: RNA Bind-n-Seq
Molecule type: RNA
Sample: in vitro
Tested at: not given
Notes: RNA with constant flanks, human-mouse chimeric sites, ends assumed
Relative to: input RNA pool
Reading: higher = stronger binding
Endpoint: bound/input enrichment
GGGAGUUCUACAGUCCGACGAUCAAGGUGAUGACUAUGUUUGUCCAACGACAGGUAUUUUCGGAGAGCAAAGAUGAGAUUGCGUUAGUCCUCUAUGGCACAGAUGGCACUGACAAUCCCCUUGCUGGCAAGGACCAGUAUCAGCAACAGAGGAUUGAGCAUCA: 0.168 ratio
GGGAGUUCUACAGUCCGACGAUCGUGACAGGUGUUAAGAUUUCCCCUCAGCAAAGAAGUGCAGUAGUCACCAUAAUUCCAUCUAUAGUGAGUGCCAGUCAGAUUGUGGAGCUGGUCCCAGACCUCAGUUUAGACAUGGGAACUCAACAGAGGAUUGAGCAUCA: 1.03 ratio
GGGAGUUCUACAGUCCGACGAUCGGGACUGAUUCAUCCCAAGGACAGGCCACCCCAUUUGAUGCCUGGACUGAUGACAGUAUGUUAGGGCCUAGUCAAAAUGUUGAAGCUGAGUCAAUUCAGGAUGCCAUGAGUAUGGAAGAGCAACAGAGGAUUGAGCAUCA: 0.496 ratio
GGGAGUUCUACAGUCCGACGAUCGGUGGGGUGGUCAUUGCCGUUUGAGCUGCUGAUUUUCUUAUGAAUCAUUCAAAACUCUCGUGUAGGGUUGACAAUGUGGGGGGGUGGGGGAUCCAGCUUAUUCUUUUAUUUUCAAGUCCACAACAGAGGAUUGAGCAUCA: 0.721 ratio
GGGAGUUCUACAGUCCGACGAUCCAGUCCCCGUGUCCCAGUGCAGGACGAUGUGAACAAAAACUCAAAGCGGCCCUUUCUUUGUAGUUCUUGAUUCUCGAAAUGUGCUAUUAUUGUUUGUCUUUUUUUUUAAAAGAAAAGAGACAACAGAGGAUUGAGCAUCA: 0.235 ratio
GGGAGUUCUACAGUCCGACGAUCAACAGAUUGUCUUUAAGCAUUCCAAGCAAUGCUUGGGGGGUGAUCAUUGUUGCCCAUGUGCCUUCUGACUGAGCUUUAAUGCUGUUCCAUGUUACAUUGAUGUUCUUCUCCAGAAUUGUUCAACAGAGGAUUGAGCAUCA: 0.143 ratio
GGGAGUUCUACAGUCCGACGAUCAACAGAUUUCUCAAGCAGUCAACGUAGGAGAAUGCUGGGGUGAUCAUUGUUGCCCAUGUGCCUUCUGACUGAGCUUUAAUGCUGUUCCAUGUUACAUCUUUCCUUCACUCCAGAAUUGUUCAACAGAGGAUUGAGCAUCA: 0.139 ratio
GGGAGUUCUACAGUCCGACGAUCAAAGAAUGGAUAGAGUGUGCACACGGGAUCGGUGGGACCCGGGCGAAAAAGGAGUGCAAGAUAGAGUUCGAUGACUUCGAAGAGUGCUUGCUUCGGCACAAAACGAUGAGGCGAAUGCAUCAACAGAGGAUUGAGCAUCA: 0.609 ratio

Study 3
Target: XBP1, bZIP domain (human)
Technique: DHFR protein complementation
Sample: yeast
Notes: single substitutions, most at no-binding floor
Relative to: wild-type JUN-FOS pair
Reading: higher = stronger binding
Endpoint: binding fitness
Parent: JUN, bZIP domain (human); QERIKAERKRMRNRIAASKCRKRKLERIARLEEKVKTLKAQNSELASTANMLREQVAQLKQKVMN; partner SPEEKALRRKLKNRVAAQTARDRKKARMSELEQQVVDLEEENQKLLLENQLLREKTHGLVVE
T48A: -0.817 natural log
M51H: -0.906 natural log
A29V: -1.11 natural log
R53V: -1.57 natural log
E32P: -1.5 natural log
S47L: -0.722 natural log
K36E: -0.664 natural log
Q41W: -1.39 natural log

Study 4
Target: Sal-like protein 4, full length isoform A (SALL4, Homo sapiens, UniProt Q9UJQ4, residues 1-1053)
Sequence of UniProt Q9UJQ4 (whole entry, looked up): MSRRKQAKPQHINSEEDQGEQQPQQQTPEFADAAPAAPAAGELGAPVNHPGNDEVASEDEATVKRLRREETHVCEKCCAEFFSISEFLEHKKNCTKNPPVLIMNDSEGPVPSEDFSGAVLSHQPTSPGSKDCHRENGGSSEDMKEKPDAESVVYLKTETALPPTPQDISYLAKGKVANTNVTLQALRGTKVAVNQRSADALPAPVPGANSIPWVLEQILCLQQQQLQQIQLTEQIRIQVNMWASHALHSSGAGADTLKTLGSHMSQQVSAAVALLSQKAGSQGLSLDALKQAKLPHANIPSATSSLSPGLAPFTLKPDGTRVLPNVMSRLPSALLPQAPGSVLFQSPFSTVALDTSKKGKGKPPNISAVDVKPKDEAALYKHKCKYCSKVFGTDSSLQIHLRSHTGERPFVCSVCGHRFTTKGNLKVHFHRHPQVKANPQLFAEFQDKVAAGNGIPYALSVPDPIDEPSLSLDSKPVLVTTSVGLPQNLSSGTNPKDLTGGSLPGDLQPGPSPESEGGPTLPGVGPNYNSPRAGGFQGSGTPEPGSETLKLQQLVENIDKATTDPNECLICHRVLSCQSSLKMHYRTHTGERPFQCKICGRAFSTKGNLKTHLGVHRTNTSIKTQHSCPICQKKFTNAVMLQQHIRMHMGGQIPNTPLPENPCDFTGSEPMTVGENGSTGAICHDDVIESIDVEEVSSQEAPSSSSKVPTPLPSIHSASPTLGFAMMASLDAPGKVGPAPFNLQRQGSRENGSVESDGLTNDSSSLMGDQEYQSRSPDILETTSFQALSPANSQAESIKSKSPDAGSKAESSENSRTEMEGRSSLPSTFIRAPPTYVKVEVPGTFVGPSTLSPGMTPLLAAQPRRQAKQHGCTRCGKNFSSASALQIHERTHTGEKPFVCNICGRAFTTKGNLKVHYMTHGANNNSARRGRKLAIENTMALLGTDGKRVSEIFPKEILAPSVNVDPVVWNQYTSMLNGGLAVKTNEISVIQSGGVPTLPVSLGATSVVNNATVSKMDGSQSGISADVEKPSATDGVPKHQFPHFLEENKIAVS
Technique: universal PBM
Molecule type: double-stranded DNA, one strand shown
Sample: in vitro
Tested at: 600 nM
Notes: 8-mer, flanks averaged, mean of replicates
Reading: higher = stronger binding
Endpoint: E-score
GAACTTTA: 0.114
GGTAGATA: 0.163
CAGAACTC: -0.0966
GCTAATAC: 0.103
GGGCAGAA: 0.0109
TGCAAAAA: 0.247
TGCCGACA: -0.0976
AACTACTG: 0.00283

Repeated from above (study 4):
GAACTTTA: 0.114
GGTAGATA: 0.163
